{"data": "Experimental data gathered from unrelated publications", "organism": "Klebsiella pneumoniae", "note": "Protocols differ between the studies behind these lines. ± marks the error that the study gave."}
{"Compound": "COc1ccc(-c2ccn(CC[C@](C)(C(=O)NO)S(C)(=O)=O)c(=O)c2)c(F)c1", "test system": "KP-1487, neutropenic mice, thigh infection", "setting": "dose not given, 24 h", "endpoint": "free AUC/MIC for 1-log kill", "value": 13.5}
{"Compound": "Cc1ccc2ccc3ccc(C)nc3c2n1.Cc1ccc2ccc3ccc(C)nc3c2n1.O.[Cl-].[Cl-].[Cl-].[Yb+3]", "test": "bacterial growth", "endpoint": "inoculation time", "value": "24 h"}
{"Compound": "Oc1ccc(F)cc1-c1nc2c(Cl)cc(Cl)cc2[nH]1", "test": "colistin potentiator", "test system": "B9", "setting": "5 µM", "endpoint": "MIC of colistin", "value": "0.125 µg/mL"}
{"Compound": "CCOC(=O)C1=C(C)NC2=C(C(=O)CC(C)(C)C2)C1c1ccc(OCC(=O)NN=Cc2cc(Br)c(O)c(Br)c2)cc1OCC(=O)NN=Cc1cc(Br)c(O)c(Br)c1 (stereo not shown)", "test system": "EMCS", "setting": "concentration not given, 24 h, 37 °C", "endpoint": "inhibition zone diameter", "value": "3.2 ± 0.3 mm"}
{"Compound": "c1ccc(CN2CCOCCOCCN(CCCCCCCCCCN3CCOCCOCCN(CCCCCCCCCCN4CCOCCOCCN(Cc5ccccc5)CCOCCOCC4)CCOCCOCC3)CCOCCOCC2)cc1", "test": "tetracycline MIC, checkerboard", "test system": "ATCC BAA-2146", "setting": "half MIC, added: tetracycline", "scale": "reference: MIC alone over combination", "endpoint": "fold enhancement", "value": "8 fold"}
{"Compound": "CCOC(=O)C1=C(C)NC2=C(C(=O)CC(C)(C)C2)C1c1ccc(OCC(=O)NN=Cc2cccc([N+](=O)[O-])c2)cc1OCC(=O)NN=Cc1cccc([N+](=O)[O-])c1 (stereo not shown)", "test system": "EMCS", "setting": "concentration not given, 24 h, 37 °C", "endpoint": "inhibition zone diameter", "value": "4.6 ± 0.2 mm"}
{"Compound": "c1ccc(CN2CCOCCOCCN(CCCCCCCCCCCCCCN3CCOCCOCCN(CCCCCCCCCCCCCCN4CCOCCOCCN(Cc5ccccc5)CCOCCOCC4)CCOCCOCC3)CCOCCOCC2)cc1", "test": "tetracycline MIC, checkerboard", "test system": "ATCC BAA-2146", "setting": "half MIC, added: tetracycline", "scale": "reference: MIC alone over combination", "endpoint": "fold enhancement", "value": "16 fold"}
{"Compound": "Oc1ccc(C(F)(F)F)cc1-c1nc2c(Cl)cc(Cl)cc2[nH]1", "test": "colistin potentiator", "test system": "B9", "setting": "5 µM", "endpoint": "MIC of colistin", "value": "0.125 µg/mL"}
{"Compound": "N[C@@H](CN[C@@H](CN[C@@H](CC(=O)O)C(=O)O)C(=O)O)C(=O)O", "test system": "ATCC 33495::pGDP2, NDM-1, Mueller-Hinton broth", "setting": "added: meropenem 2 µg/mL", "endpoint": "rescue concentration", "value": "8 µg/mL"}
{"Compound": "CC(=NNC(=N)N)c1nnn(-c2ccc(C#CC3(O)CCCCC3)cc2)c1C", "test": "crystal violet", "test system": "ATCC 13883", "setting": "MIC", "endpoint": "biofilm inhibition", "value": "72.11 ± 0.51%"}
{"Compound": "NC(CNC(CNC(CC(=O)O)C(=O)O)C(=O)O)C(=O)O (stereo not shown)", "test system": "N11-2218 NDM-1-positive, mice", "setting": "subcutaneous, 30 mg/kg single dose, 5 days, added: meropenem 10 mg/kg", "endpoint": "survival", "value": "> 95%"}
{"Compound": "Oc1ccc(Cl)cc1-c1nc2c(Cl)cc(Cl)cc2[nH]1", "test": "colistin potentiator", "test system": "B9", "setting": "5 µM", "endpoint": "MIC of colistin", "value": "0.25 µg/mL"}
{"Compound": "O.O.O.O.O=C([O-])Cc1ccccc1Nc1c(Cl)cccc1Cl.O=C([O-])Cc1ccccc1Nc1c(Cl)cccc1Cl.[Na+].[Na+].c1cnc2c(c1)ccc1cccnc12.c1cnc2c(c1)ccc1cccnc12", "test": "biofilm formation, crystal violet", "test system": "ATCC 13882", "setting": "250 µM", "endpoint": "inhibition", "value": "78.03 ± 0.062%"}
{"note": "Excerpt of the above:"}
{"Compound": "Oc1ccc(F)cc1-c1nc2c(Cl)cc(Cl)cc2[nH]1", "test": "colistin potentiator", "test system": "B9", "setting": "5 µM", "endpoint": "MIC of colistin", "value": "0.125 µg/mL"}
{"Compound": "CCOC(=O)C1=C(C)NC2=C(C(=O)CC(C)(C)C2)C1c1ccc(OCC(=O)NN=Cc2cc(Br)c(O)c(Br)c2)cc1OCC(=O)NN=Cc1cc(Br)c(O)c(Br)c1 (stereo not shown)", "test system": "EMCS", "setting": "concentration not given, 24 h, 37 °C", "endpoint": "inhibition zone diameter", "value": "3.2 ± 0.3 mm"}
